{"data": "Measurements gathered from unrelated publications", "note": "Each numbered part is a random draw from the data of one study; scales do not carry over between parts. Values joined by “and” are separate records of one study, mostly repeats; a detail may differ."}
{"data": "Set 1", "cell line": "normal organoid sample G", "technique": "CellTiter-Glo", "species": "human", "sample": "normal-adjacent epithelium", "concentration": "0.1 µM", "relative to": "DMSO"}
{"Compound": "O=C(NCCCC1CCCCC1)c1ccc(CNC(=O)c2cnn(-c3ccccc3)c2C(F)(F)F)cc1", "viability": "116% and 129%"}
{"Compound": "CN1C(=O)[C@@H](N2CCc3cn(Cc4ccccc4)nc3C2=O)COc2ccccc21", "viability": "104% and 114%"}
{"Compound": "COc1cc(N[C@@H]2CCCC[C@]2(O)C(F)(F)F)ccc1F", "viability": "103% and 119%"}
{"Compound": "Nc1c(C(=O)NCc2ccc(C(=O)NCCCC3CCCCC3)cc2)cnn1-c1ccccc1", "viability": "127% and 118%"}
{"Compound": "O[C@]1(C(F)(F)F)CCCC[C@H]1Nc1ccc(F)cc1", "viability": "103% and 107%"}
{"Compound": "CS(=O)(=O)N1CCCC(NC(=O)[C@H](CCC2CCCCC2)NC(=O)c2ccc(CNC(=O)c3cnc4ccccn34)cc2)C1 (some centres unmarked)", "viability": "112% and 138%"}
{"Compound": "CN1C(=O)[C@@H](N2CCc3c(nn(Cc4ccccc4)c3Br)C2=O)COc2ccccc21", "viability": "102% and 105%"}
{"data": "Set 2", "SMILES": "CC(C)C[C@@H]1NC(=O)[C@@H](N(C)C(=O)[C@H](CC2CCC2)NC(=O)[C@@H]2C[C@@H](F)CN2C(=O)C2(C(F)(F)F)CC(F)(F)C2)CCCCNC(=O)C2(CC2)NC(=O)[C@H](Cc2cc(Cl)ccc2Cl)N(C)C1=O", "technique": "flow cytometry"}
{"cell line": "NCI-H446", "concentration": "20 nM", "time": "72 h", "cleaved PARP positive cells": "7.76% and 5.8% and 5.67%"}
{"cell line": "A549", "concentration": "20 nM", "time": "72 h", "cleaved PARP positive cells": "0.73% and 0.17% and 0.21%"}
{"cell line": "NCI-H446", "concentration": "200 nM", "time": "3 days", "with": "Mps1 inhibitor 3 nM", "cleaved PARP positive cells": "20.4% and 18% and 21.8%"}
{"cell line": "NCI-H446", "concentration": "2 nM", "time": "3 days", "with": "Mps1 inhibitor 3 nM", "cleaved PARP positive cells": "7.09% and 7.52% and 6.82%"}
{"cell line": "human CD34+ HSPC", "concentration": "1000 nM", "time": "24 h", "cleaved PARP positive cells": "0.9% and 1.84%"}
{"cell line": "A549", "concentration": "2000 nM", "time": "72 h", "cleaved PARP positive cells": "1.96% and 5.43% and 4.08%"}
{"cell line": "NCI-H446", "concentration": "60 nM", "time": "3 days", "with": "Mps1 inhibitor 3 nM", "cleaved PARP positive cells": "18.6% and 23% and 21.1%"}
{"data": "Set 3", "SMILES": "CC(C)(C(=O)O)[C@H](NC(=O)Cc1cccc(I)c1)c1ccc2oc(=O)[nH]c2c1", "technique": "Incucyte 3D growth", "concentration": "30 µM", "reading": "higher = more growth"}
{"cell line": "A375", "time": "396.52 h", "spheroid area": "1.56e+08 a.u. and 1.87e+08 a.u. and 1.66e+08 a.u. and 1.76e+08 a.u. and 1.64e+08 a.u."}
{"cell line": "A375", "time": "234 h", "spheroid area": "1.17e+08 a.u. and 1.35e+08 a.u. and 1.32e+08 a.u. and 1.57e+08 a.u. and 1.38e+08 a.u."}
{"cell line": "NCI-H358", "time": "222 h", "spheroid area": "9.03e+06 a.u. and 7.51e+06 a.u. and 8.87e+06 a.u. and 7.89e+06 a.u. and 1e+07 a.u. and 8.26e+06 a.u."}
{"cell line": "A375", "time": "174.52 h", "spheroid area": "1.28e+08 a.u. and 1.27e+08 a.u. and 1.36e+08 a.u. and 1.38e+08 a.u. and 1.18e+08 a.u. and 1.09e+08 a.u."}
{"cell line": "IPC-298", "time": "90 h", "spheroid area": "2.62e+07 a.u. and 2.36e+07 a.u. and 2.76e+07 a.u. and 3.03e+07 a.u. and 2.74e+07 a.u. and 3.26e+07 a.u."}
{"cell line": "KP-4", "time": "0 h", "spheroid area": "7e+07 a.u. and 6.73e+07 a.u. and 6.93e+07 a.u. and 6.88e+07 a.u. and 6.63e+07 a.u. and 6.39e+07 a.u."}
{"cell line": "MEL-JUSO", "time": "180.52 h", "spheroid area": "1.51e+07 a.u. and 1.69e+07 a.u. and 1.95e+07 a.u. and 1.7e+07 a.u. and 1.64e+07 a.u. and 2e+07 a.u."}
{"data": "Set 4", "cell line": "mouse MPNST tumor cells", "technique": "high-content immunofluorescence imaging", "refers to": "nuclear SOX9", "concentration": "10 µM", "time": "12 h", "notes": "mean of 2 replicates", "relative to": "DMSO control", "reading": "higher = more nuclear SOX9"}
{"Compound": "Nc1nc(N)nc(-c2cc(Cl)ccc2Cl)n1", "nuclear SOX9 intensity": "106 % of DMSO and 107 % of DMSO"}
{"Compound": "Cn1c(=O)c2c(ncn2CC2OCCO2)n(C)c1=O", "nuclear SOX9 intensity": "95.1 % of DMSO"}
{"Compound": "CCCC(CCC)C(=O)NCc1ccc2c(cnn2-c2ccccc2OC)c1", "nuclear SOX9 intensity": "100 % of DMSO"}
{"Compound": "CO[C@@]1(NC(=O)C(C(=O)O)c2ccc(O)cc2)C(=O)N2C(C(=O)O)=C(CSc3nnnn3C)CO[C@@H]21 (some centres unmarked)", "nuclear SOX9 intensity": "100 % of DMSO"}
{"Compound": "Cc1c(N(C)CS(=O)(=O)O)c(=O)n(-c2ccccc2)n1C", "nuclear SOX9 intensity": "93.3 % of DMSO"}
{"Compound": "O=C(Nc1ccc(Cl)c(Cl)c1)Nc1ccc(Cl)c(Cl)c1", "nuclear SOX9 intensity": "105 % of DMSO"}
{"Compound": "Nc1[nH]nc2nnc(-c3c(-c4ccccc4)nn4ccccc34)cc12", "nuclear SOX9 intensity": "88.9 % of DMSO"}
{"Compound": "CCn1c2ccccc2c2cc(CNC)ccc21", "nuclear SOX9 intensity": "217 % of DMSO"}
